Results gathered from unrelated publications.
Numbered parts are unrelated; each lists some results of a single study.

Study 1
Target: RING finger protein unkempt homolog, zinc fingers 1-6, SBP tag (UNK, Homo sapiens, UniProt Q9C0B0, residues 30-357)
Chain of UniProt Q9C0B0 (30-357, looked up): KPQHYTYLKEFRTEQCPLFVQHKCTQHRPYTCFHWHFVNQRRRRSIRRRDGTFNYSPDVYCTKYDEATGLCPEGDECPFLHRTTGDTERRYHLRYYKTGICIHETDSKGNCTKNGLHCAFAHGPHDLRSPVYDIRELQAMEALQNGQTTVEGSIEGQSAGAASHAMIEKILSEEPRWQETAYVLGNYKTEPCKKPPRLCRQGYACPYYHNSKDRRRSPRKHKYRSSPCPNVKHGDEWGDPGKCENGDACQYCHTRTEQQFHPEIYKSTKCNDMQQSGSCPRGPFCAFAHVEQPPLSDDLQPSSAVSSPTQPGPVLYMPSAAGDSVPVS
Method: RNA Bind-n-Seq
Form: RNA
Medium: in vitro
Concentration: 100 nM
Setting: RNA with constant flanks, vertebrate orthologous sites, ends assumed
Reference: input RNA pool
Reading: higher = stronger binding
Endpoint: bound/input enrichment
Strand = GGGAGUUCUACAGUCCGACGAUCCCUUCUGUAGAGAACAAUUUUCACUGAAGCCAUUGGCAAAUUCCCCCCACCAGACUUUUCUUUGGAGCUCUUUAAUUUCGUACAAUCUUGCUGUGUUGGUCAUUGUUAGCCCUGAAUCCACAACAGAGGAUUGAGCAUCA; value = 0.862 ratio
Strand = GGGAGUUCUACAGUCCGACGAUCUACAAUAAUGAAAACCUACUAGGAAUUUUUUUAUUUUUCCAUUUUCCCCUUAGGCAUACUUAGUCUCUUUUUUUCCCUAGGCAGAUCAUUCUGAGUGUGCGAGUGUGUGUGCACAUGUUACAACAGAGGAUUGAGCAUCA; value = 4.29 ratio
Strand = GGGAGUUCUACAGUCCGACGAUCGAGAUUCCCCAUUGUCACUGAGAACCACCAAAUCUGACUUUUACAUUUGGUCUCAGAAUUUAGGUUCCUGCCCUGUUGGUUUUUUUGUUUUGUUUUUAAACAGUUUUCAAAAGUUCUUAACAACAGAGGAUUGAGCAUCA; value = 0.322 ratio
Strand = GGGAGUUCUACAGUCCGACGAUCAGAUUUGGACCUUGGAGACGAACCAAGGAGCUAGCAAAGUAAAGCAGACUUGUAAAAUGAUAGCCAGAUGCAGCUGCACAACAACAGUACUAUGACUAGCAGCUGUGUUAAAGUAUUUAUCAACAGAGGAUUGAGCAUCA; value = 0.315 ratio
Strand = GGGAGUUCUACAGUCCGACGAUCGUAUUAGUGUCCUACCAGCCUGCCAACUCUCAUCUGUGCACAGCUUCCAGUGUUAGGGUCUAGCUAGAUUUUUAUUUAAAAUAUGAACAACUGCUUUUCCCAAGGUGUUUUUUUAGGGGGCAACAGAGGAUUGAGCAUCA; value = 2.27 ratio
Strand = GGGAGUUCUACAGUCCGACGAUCCCGGUUGUAUGUGCAUUAUCCACAUUCCUCUCUGUUGUGUUUGGGGACAAAAAAGACAUUUUAGCCUUUUUUAAGGUUAUUGUUUAAUUUAAUGUUAUUUGGUUGCAUGAAGUUGCCCUUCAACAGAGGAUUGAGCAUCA; value = 0.43 ratio
Strand = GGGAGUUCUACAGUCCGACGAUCCCUACAAUAAUGAAAACCUACAAGAAUUUUUUUAUUUUUCAUUUUCCCCUUAGGCAUAUUUAGUAUUUUUUCCCCAGGCAGAUCAUUCUGAGUGUGCGAGUGUGUGUGCACAUGUUACAACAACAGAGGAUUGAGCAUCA; value = 3.73 ratio
Strand = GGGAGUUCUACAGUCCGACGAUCCAUUGUAUCCUGCUGUAUAAUAAACAAUCUUAGACAUUUAUCAACUGUUGAUACAAAUGUUAGUCCCUAACCACUUUUUAUAUGUUUUAAAUUUUUGAAAUUCAAGUGUACCUGCCAUAACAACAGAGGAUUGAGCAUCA; value = 2.52 ratio
Strand = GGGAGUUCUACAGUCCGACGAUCAUUCAUCUCUUACUUAGUGUCCAAAAUUACUGAGGGUUUGAAACAUUCAGUAAUUUCACAUAGAGCUACAUUGGCAGGUGCUUUAAUACUAUCAUAGUGAGAUCAGAUACCAUUGUAGUACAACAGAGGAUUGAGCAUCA; value = 0.6 ratio
Strand = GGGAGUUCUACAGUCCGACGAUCGCACAUGCCGCUAUCACCAAAAGCAAACUGCCACUUUUCAAAUUUCAUUCAGAGCUGUGUUAGUGUUUCCUAUUCCCUACCCUUCCCACUUUCAAUGAUGAAAUAUCCUAAGUUCUCCUUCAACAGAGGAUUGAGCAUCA; value = 1.48 ratio
Strand = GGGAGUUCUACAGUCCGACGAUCAUUCAAACCCGUGGUGCCCUGGCCUCAUGUUGAAGGAGUGGAAGUGGACUUAGAGUCUAUUAGAAGAAAAAACAAGGCCAGACAUGAACAAGAGCGCCACGCUGGAGGAGAUAACCAGAACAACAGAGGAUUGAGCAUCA; value = 0.416 ratio

Study 2
Target: Interferon regulatory factor 7, full length, phosphomimetic (IRF7, Homo sapiens, UniProt Q92985, residues 1-503, S101K/S471D/S472D/S475D/S476D/S477D/S483D/S484D/S487D)
Chain of UniProt Q92985 (whole entry, unmodified, looked up): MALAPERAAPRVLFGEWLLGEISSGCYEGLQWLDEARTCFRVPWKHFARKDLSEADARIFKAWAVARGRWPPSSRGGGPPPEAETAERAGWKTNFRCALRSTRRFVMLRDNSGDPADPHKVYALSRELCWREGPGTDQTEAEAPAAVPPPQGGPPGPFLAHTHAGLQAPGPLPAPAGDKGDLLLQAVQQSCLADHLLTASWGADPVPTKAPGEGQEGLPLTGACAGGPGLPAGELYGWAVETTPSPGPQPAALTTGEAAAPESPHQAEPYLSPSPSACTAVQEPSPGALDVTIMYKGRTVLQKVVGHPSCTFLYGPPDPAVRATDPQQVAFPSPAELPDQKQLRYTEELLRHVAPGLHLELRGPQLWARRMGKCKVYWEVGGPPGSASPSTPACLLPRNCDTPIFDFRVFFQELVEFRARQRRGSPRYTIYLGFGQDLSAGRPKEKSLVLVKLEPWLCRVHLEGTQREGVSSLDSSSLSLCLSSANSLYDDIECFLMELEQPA
Method: protein-binding microarray
Form: double-stranded DNA, one strand shown
Medium: in vitro
Concentration: 250 nM
Setting: 60-bp whole probe
Together with: salmon DNA 0.4 mg/ml
Reference: random background probes
Reading: higher = stronger binding
Endpoint: log fluorescence
Shared flanks, not repeated: GCCTAGCAC … GTCTTGATTCGCTTGACGCTGCTG
Strand = GACGATATCAGTCTCGACACGTGCTAG; value = 0.245 z-score
Strand = GACGGTCTCGGTTTCGAGACGTGCTAG; value = 8.52 z-score
Strand = TTAGGACTGGGGTTTCGGTTTGTGCTA; value = 9.94 z-score
Strand = TTAGGTATCGGTCTTGGTTAGTGCTAG; value = 0.904 z-score
Strand = GACGATTTCGGTACTGGAGACGTGCTA; value = 0.119 z-score
Strand = TTAGGTATCCTTATCCTTCAGTGCTAG; value = 0.399 z-score
Strand = GACGGTTTCATTTTCCTGACGTGCTAG; value = 6.92 z-score
Strand = TTAGGACTGCTTATCCTATAGTGCTAG; value = 0.213 z-score
Strand = TTAGATTTCGGTTTCGGTTAGTGCTAG; value = 11.3 z-score
Strand = TAGGTTTCACTTTCCAAAACGTGCTAG; value = 11.9 z-score
Strand = TCTGTTTTTGCTTTCCTTCTGTGCTAG; value = 2.02 z-score
Strand = TTAGGTATCCTTATGCTTTAGTGCTAG; value = 0.0394 z-score
Strand = GACGGTCTCGGTATGGGGACGTGCTAG; value = 1.54 z-score
Strand = TCACTTTCCACTTGTCTTTTCGTGCTA; value = 3.7 z-score
Strand = TCATCTCTGTCCCTGTTACTGTGCTAG; value = 0.806 z-score
Strand = GACGGATTCCTTTCCCTGACGTGCTAG; value = 1.19 z-score
Strand = TTAGGACTGGGGTAGCGGTTAGTGCTA; value = -0.765 z-score
Strand = CAGTTTTCCTATGTCATTTAGTGCTAG; value = 2.9 z-score
Strand = TTAGGACTGGGGCTTCGGTTAGTGCTA; value = -0.674 z-score
Strand = ATAGGTTTCGGTTCCGGTTAGTGCTAG; value = 13 z-score
Strand = TCAATTCTCTGTTTATGACTGTGCTAG; value = 2.43 z-score
Strand = TTAGAAGTGAGTATCGATTAGTGCTAG; value = 0.262 z-score
Strand = GACGGTTTCGGTTCCGGGACGTGCTAG; value = 13 z-score

Study 3
Target: Ras GTPase-activating protein-binding protein 1, full length (G3BP1, Homo sapiens, UniProt Q13283)
Chain of UniProt Q13283 (whole entry, looked up): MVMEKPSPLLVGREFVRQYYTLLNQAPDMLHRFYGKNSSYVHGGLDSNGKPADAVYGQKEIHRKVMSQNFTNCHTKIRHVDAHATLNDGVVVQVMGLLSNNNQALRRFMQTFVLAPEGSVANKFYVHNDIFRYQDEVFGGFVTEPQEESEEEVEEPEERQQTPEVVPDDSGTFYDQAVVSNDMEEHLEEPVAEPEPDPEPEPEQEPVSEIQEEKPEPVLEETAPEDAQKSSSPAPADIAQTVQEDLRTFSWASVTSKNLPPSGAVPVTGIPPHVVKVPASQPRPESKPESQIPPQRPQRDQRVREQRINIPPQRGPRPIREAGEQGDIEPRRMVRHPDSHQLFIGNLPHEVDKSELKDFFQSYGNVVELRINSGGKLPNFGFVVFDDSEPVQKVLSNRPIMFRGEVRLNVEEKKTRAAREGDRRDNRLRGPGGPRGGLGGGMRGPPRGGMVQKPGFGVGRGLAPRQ
Method: RNA Bind-n-Seq
Form: RNA
Medium: in vitro
Concentration: 200 nM
Setting: whole 134-nt RNA, ends assumed
Together with: 150 mM KCl
Reference: input library
Reading: higher = stronger binding
Endpoint: log2 enrichment
Strand = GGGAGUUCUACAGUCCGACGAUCUGGAGAAGCGCUACCUGGCUGCUCAGCGUGAGGCAACAUCCAUCCAUGACCUCAAUGACAAGCUGGAGAAUGAGCUGGCCAACAAGGAGUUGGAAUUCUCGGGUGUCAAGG; value = -0.758
Strand = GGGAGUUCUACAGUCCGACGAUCAGUCCUGUGCUACACAUCGUAUGUACCGAAUCGGGUUUUUGGUUUUUGGGGUUUUUGGAAAGUAUUAUGUUACGCCGUUCGGAUCUGCACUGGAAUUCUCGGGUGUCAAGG; value = -0.982
Strand = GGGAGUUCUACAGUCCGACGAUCCCUCAAGUCCUGUGCUACACAUCGUAUGUACCGAAUCGGCCGGGCCGGGCCGGAAAGUAUUAUGUUACGCCGUUCGGAUCUGCACUUCCAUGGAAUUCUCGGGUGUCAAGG; value = -0.338
Strand = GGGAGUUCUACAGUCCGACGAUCUUCCUCAGGGUAGAACUGGAUGACUCAGACGUGUUCCAUGGUGAACCUGAACCUGAGGAGCUGCCUGGAGGUAAGGGCCCUGAACUGUCCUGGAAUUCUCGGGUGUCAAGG; value = -2.48
Strand = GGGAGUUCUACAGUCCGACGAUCCCUCAAGUCCUGUGCUACACAUCGUAUGUACCGAAUCGGGCGGGGCGGCGGGAAAGUAUUAUGUUACGCCGUUCGGAUCUGCACUUCCAGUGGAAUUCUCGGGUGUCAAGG; value = 0.49
Strand = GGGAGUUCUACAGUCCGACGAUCUAGUCCAGCAUCAAGAUUCGCCGGCCUGGAUACAAAUCAGCGACUUACAGCUUUAGCUGAAGACAGACCGUUAUUUGAUGGACCUAGUAGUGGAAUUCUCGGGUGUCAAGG; value = -1.56
Strand = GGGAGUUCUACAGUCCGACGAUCAGUCCUGUGCUACACAUCGUAUGUACCGAAUCGGGCCCCGGGGCCCCGGGGCCCCGGGAAAGUAUUAUGUUACGCCGUUCGGAUCUGCACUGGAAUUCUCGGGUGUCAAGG; value = 0.374
Strand = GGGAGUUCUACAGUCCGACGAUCUUCCCACAGCCCAAAAAUCUUCUCAACAGUGUGAUUGGAAGAGCCCUCGGCAUCUCACAUGCAAAAGACAAACUAGUCUACGUGCACACAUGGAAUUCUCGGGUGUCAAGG; value = 0.174
Strand = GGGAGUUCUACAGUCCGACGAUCUUACAUUACCUGGUGAAAUAGACAUUGACAGUAUCUCCUAUGAAGAGCUUUCACCACCUGAUGAAGAGCCUGCCAAGAAUAAAAAGGAAAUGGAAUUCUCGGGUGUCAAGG; value = -1.1
Strand = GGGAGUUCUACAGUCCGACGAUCUCCUCAAGUCCUGUGCUACACAUCGUAUGUACCGAAUCGGGUGGUGGUGGGGAAAGUAUUAUGUUACGCCGUUCGGAUCUGCACUUCCAGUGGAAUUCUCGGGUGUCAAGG; value = 0.55
Strand = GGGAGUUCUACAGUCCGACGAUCUGCAGAAGCAUCUUCAGUUGGAGAGCCAUUGCCUCUUGCUGUGAAAUAUUUGGGAAUCUUCAGAAACCAUGAAGAAUAACCUGCUAAAGGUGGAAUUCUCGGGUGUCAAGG; value = -1.66
Strand = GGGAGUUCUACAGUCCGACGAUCCCUGUGCUACACAUCGUAUGUACCGAAUCGGGGUUUUUUGGGUUUUUUGGUUUUUUGGGGAAAGUAUUAUGUUACGCCGUUCGGAUCUGCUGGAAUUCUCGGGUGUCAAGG; value = -0.794
Strand = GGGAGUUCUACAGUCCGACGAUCGUCCUGUGCUACACAUCGUAUGUACCGAAUCGGAAAAAGGGAAAAAGGGAAAAAGGGGAAAGUAUUAUGUUACGCCGUUCGGAUCUGCACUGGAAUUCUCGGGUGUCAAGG; value = -0.354
Strand = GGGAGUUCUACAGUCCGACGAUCCAAGUCCUGUGCUACACAUCGUAUGUACCGAAUCGGUUUGGAAAGGUUUUUUUGGAAAGUAUUAUGUUACGCCGUUCGGAUCUGCACUUCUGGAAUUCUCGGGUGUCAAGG; value = -1.04

Study 4
Target: Histone acetyltransferase KAT6A, winged helix 2, GST fusion (KAT6A, Homo sapiens, UniProt Q92794, residues 85-181)
Method: protein binding microarray
Form: double-stranded DNA, one strand shown
Medium: in vitro
Concentration: not given
Setting: 8-mer, flanks averaged, mean of 2 arrays, mostly near background
Reference: not given
Reading: higher = stronger binding
Endpoint: E-score
Residues (chain): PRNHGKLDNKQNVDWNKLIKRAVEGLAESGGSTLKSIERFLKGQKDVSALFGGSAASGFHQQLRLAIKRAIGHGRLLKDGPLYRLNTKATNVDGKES
Strand = GCACCGCA; value = 0.132
Strand = CCCCCCCC; value = -0.0276
Strand = CGTTCCAG; value = -0.0651
Strand = ACTTTGAG; value = 0.103
Strand = AAACAATA; value = 0.0728
Strand = TGCGTAAA; value = -0.0474
Strand = TGGCTTAA; value = -0.0165
Strand = CTACCGTC; value = -0.0141
Strand = AGGCACGG; value = 0.0288
Strand = CTACGAAA; value = -0.15
Strand = GATCTTGA; value = 0.00721
Strand = CAGCGGTA; value = 0.096
Strand = GCTCACGA; value = 0.0552
Strand = GCAAATCC; value = 0.0934
Strand = AGTCCACC; value = -0.022
Strand = AAAGCCGG; value = 0.139
Strand = AATGAGCC; value = -0.0657

Repeated from above (study 4):
Strand = CCCCCCCC; value = -0.0276
Strand = CGTTCCAG; value = -0.0651
Strand = ACTTTGAG; value = 0.103
Strand = AAACAATA; value = 0.0728
Strand = TGCGTAAA; value = -0.0474
Strand = TGGCTTAA; value = -0.0165
Strand = CTACCGTC; value = -0.0141
Strand = AGGCACGG; value = 0.0288
Strand = CTACGAAA; value = -0.15
Strand = GATCTTGA; value = 0.00721
